Experimental data collected from several papers.
Each line is one published result; not all experiments were run side by side. Numbers after ± are the reported error. Square brackets hold non-standard residues; d marks the D form. Ends that are not written are not given here.
ACTA1: ACTA1, TMR label (Oryctolagus cuniculus, UniProt P68135)
T1: Psmc3ip/Mnd1 K63A/Y65A/K67A/R64A/Y70A/Y71A (Mus musculus); chain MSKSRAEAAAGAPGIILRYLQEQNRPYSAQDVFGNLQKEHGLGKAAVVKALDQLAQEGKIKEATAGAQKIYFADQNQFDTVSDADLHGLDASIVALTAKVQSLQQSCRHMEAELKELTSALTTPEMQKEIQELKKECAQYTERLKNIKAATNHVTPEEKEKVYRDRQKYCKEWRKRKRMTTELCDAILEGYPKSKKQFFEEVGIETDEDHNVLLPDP; chain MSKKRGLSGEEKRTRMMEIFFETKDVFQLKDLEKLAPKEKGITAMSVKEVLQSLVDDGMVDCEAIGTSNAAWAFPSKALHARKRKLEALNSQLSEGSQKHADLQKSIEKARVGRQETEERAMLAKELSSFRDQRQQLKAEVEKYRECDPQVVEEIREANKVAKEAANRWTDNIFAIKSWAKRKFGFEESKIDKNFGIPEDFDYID
T2: STAG2/RAD21 STAG2 80-1060, RAD21 281-420 (Homo sapiens); chain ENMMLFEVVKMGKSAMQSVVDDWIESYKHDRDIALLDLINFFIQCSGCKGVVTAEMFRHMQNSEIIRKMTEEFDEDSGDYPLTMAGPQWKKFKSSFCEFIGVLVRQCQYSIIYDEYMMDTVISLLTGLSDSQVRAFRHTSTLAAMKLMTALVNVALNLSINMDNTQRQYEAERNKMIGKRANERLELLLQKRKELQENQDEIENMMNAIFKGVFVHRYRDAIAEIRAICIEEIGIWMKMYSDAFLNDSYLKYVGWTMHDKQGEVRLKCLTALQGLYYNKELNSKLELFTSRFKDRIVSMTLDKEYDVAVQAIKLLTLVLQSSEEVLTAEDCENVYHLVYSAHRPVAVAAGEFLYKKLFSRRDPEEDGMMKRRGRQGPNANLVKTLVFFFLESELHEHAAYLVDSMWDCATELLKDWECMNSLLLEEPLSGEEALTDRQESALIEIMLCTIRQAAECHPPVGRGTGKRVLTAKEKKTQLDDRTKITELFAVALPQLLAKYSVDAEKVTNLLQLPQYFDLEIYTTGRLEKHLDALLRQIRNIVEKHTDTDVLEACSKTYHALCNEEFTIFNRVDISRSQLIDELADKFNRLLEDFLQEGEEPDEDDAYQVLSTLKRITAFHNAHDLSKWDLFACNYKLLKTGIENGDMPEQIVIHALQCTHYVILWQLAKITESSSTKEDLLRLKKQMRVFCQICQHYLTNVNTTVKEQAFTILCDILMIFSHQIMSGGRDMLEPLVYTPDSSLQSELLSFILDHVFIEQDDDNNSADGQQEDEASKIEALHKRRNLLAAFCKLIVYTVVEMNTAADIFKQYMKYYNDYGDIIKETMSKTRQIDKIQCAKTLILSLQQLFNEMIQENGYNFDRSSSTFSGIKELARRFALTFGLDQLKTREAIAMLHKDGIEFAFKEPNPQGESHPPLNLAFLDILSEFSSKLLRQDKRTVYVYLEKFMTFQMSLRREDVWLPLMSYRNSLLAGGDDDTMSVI; chain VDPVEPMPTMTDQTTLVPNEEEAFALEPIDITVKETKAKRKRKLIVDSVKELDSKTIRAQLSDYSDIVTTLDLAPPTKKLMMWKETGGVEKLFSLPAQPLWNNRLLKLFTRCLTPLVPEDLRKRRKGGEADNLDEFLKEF
B1: RH5 (Plasmodium falciparum, UniProt Q8IFM5); sequence looked up; chain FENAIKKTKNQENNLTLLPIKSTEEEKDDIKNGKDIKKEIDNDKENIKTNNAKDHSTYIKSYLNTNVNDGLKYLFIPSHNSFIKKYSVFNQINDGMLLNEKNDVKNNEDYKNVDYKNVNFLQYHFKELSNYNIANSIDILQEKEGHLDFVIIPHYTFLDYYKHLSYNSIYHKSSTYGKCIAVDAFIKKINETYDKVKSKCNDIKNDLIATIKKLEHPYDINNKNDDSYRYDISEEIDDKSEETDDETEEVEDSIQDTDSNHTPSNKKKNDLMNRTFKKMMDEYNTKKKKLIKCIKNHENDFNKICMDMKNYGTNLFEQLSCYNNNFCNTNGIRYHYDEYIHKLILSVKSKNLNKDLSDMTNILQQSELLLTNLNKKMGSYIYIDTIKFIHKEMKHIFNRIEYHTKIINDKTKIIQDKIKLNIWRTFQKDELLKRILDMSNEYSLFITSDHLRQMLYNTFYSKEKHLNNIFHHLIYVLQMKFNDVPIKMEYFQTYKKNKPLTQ
B2: Fmnl3 555-954 M742A (Mus musculus, UniProt Q6ZPF4); chain GLSAIRIKKPIKTKFRLPVFNWTALKPNQINGTVFSELDDEKILEDLDLDRFEELFKTKAQGPALDLICSKNKTAQKAASKVTLLEANRAKNLAITLRKAGRSAEEICRAIHTFDLQTLPVDFVECLMRFLPTEAEVKLLRQYERERQPLEELAAEDRFMLLFSKVERLTQRMAGMAFLGNFQDNLQALTPQLNAIIAASASVKSSQKLKQMLEIILALGNYMNSSKRGAVYGFKLQSLDLLLDTKSTDRKMTLLHFIALTVKEKYPELANFWQELHFVEKAAAVSLENVLLDVKELGRGMELIRRECSIHDNSVLRNFLSTNEGKLDKLQRDAKTAEEAYNAVVRYFGESPKTTPPSVFFPVFVRFIRSYKEAEQENEARKKQEEVMREKQLAQEAKKL
B3: Fmnl3 555-954 (Mus musculus, UniProt Q6ZPF4); chain GLSAIRIKKPIKTKFRLPVFNWTALKPNQINGTVFSELDDEKILEDLDLDRFEELFKTKAQGPALDLICSKNKTAQKAASKVTLLEANRAKNLAITLRKAGRSAEEICRAIHTFDLQTLPVDFVECLMRFLPTEAEVKLLRQYERERQPLEELAAEDRFMLLFSKVERLTQRMAGMAFLGNFQDNLQMLTPQLNAIIAASASVKSSQKLKQMLEIILALGNYMNSSKRGAVYGFKLQSLDLLLDTKSTDRKMTLLHFIALTVKEKYPELANFWQELHFVEKAAAVSLENVLLDVKELGRGMELIRRECSIHDNSVLRNFLSTNEGKLDKLQRDAKTAEEAYNAVVRYFGESPKTTPPSVFFPVFVRFIRSYKEAEQENEARKKQEEVMREKQLAQEAKKL
B4: KREPA2 1-587 (Trypanosoma brucei, UniProt A0A3L6L0V2); chain MYRRFFRSAAVKHLGTTSAQCLMRATKYPCGAMCRNASSCHPQTLGYQQRFQSTTDKKFHCSVCKKPFRLEMAAKLHLQQAHGGDGSVEAGPGPGVEASSVNVVSTPVPSPISPVERTFVDEEERRPRRMRPTPKPLHQPDRDIPAAAMEEMLGVWDKIGLNRLEGNFVHSTMVMKVFAAPPDVSEIPLYEHVAPEGENPFDSLDHMTTGTVDATYVGHDAFAEVDLVDPFVAAPDQTLNPFRAGKVRNPFTRISPTQREVVKPLQPPQPKEEPLKAPVTPFGQLPMFGQTREPSASFAAAAVSVQAAANPNEVSSPFAAAVSSSPFVGQVASPFAPAQDVAGSPFEASPCAASSPFVTAGGQETSPFAAPSTPASFGQGSLFPPMGTGAPGFTAITETEQRQQELEHGCPTCGKKFSTFEGAAMHSKSKHGIVLESKKVKDRLNRKGVPDLPAYVPSPVDLSSTSPFGTRSAIGASWAETELIPHAQCVSNITIVGRVLDVSQASENVSHVTVFVEGERSGEEETLTLCCFGEVSQKIRGTLKRNATIFASGTLRLHPVYEASNNKYYVSPVVHVSMPTGTLAVIT
B5: Fmnl3 555-954 R782A (Mus musculus, UniProt Q6ZPF4); chain GLSAIRIKKPIKTKFRLPVFNWTALKPNQINGTVFSELDDEKILEDLDLDRFEELFKTKAQGPALDLICSKNKTAQKAASKVTLLEANRAKNLAITLRKAGRSAEEICRAIHTFDLQTLPVDFVECLMRFLPTEAEVKLLRQYERERQPLEELAAEDRFMLLFSKVERLTQRMAGMAFLGNFQDNLQMLTPQLNAIIAASASVKSSQKLKQMLEIILALGNYMNSSKAGAVYGFKLQSLDLLLDTKSTDRKMTLLHFIALTVKEKYPELANFWQELHFVEKAAAVSLENVLLDVKELGRGMELIRRECSIHDNSVLRNFLSTNEGKLDKLQRDAKTAEEAYNAVVRYFGESPKTTPPSVFFPVFVRFIRSYKEAEQENEARKKQEEVMREKQLAQEAKKL
B6: protein mature (Micrurus tener tener, UniProt G9I930); disulfide bonds; chain NLNQFRLMIKCTNDRVWADFVDYGCYCVARDSNTPVDDLDRCCQAQKQCYDEAVKVHGCKPLVMFYSFECRYLASDLDCSGNNTKCRNFVCNCDRTATLCILTATYNRNNHKIDPSRCQ
B7: HNRNPH1 192-280 (Homo sapiens, UniProt P31943); chain RTHYDPPRKLMAMQRPGPYDRPGAGRGYNSIGRGAGFERMRRGAYGGGYGGYDDYNGYNDGYGFGSDRFGRDLNYCFSGMSDHRYGDGG

Molecule | partner | assay | test system | conditions | how to read | measurement | value
B1 (RH5) | BSG 22-269 (Homo sapiens, UniProt P35613-2) | flow cytometry | human RBCs | added: RII EBA-175 2 µM | reference: unstimulated RBCs, higher = more binding | relative binding | 3.7 fold
B2 (Fmnl3 555-954 M742A) | ACTA1 | AUC | – | KCl 50 mM | – | fraction bound | 0.98 fraction
Dctn1 (Mus musculus, UniProt O08788) | Dync1h1 F580Y (Mus musculus, UniProt Q9JHU4) | co-IP | brain extract | 4 °C | reference: wild type, lower = less binding | p150/DHC ratio | 1.2 fold
Importin-β/IBB-mEGFP IBB (Saccharomyces cerevisiae) | NSP1 fragment (Saccharomyces cerevisiae) | ellipsometry | – | apparent, two-component fit | – | partition coefficient | 6700
B3 (Fmnl3 555-954) | ACTA1 | AUC | – | – | – | molecule per partner | 1 FH2:actin
B4 (KREPA2 1-587) | KREL1 51-469 (Trypanosoma brucei) | nicked dsRNA ligation | – | – | reference: without molecule, higher = more ligation | increase in ligation efficiency | 30%
B5 (Fmnl3 555-954 R782A) | ACTA1 | AUC | – | KCl 50 mM | – | fraction bound | 0.7 fraction
RmS-6, glycosylated (Rhipicephalus microplus) | PRTN3 (Homo sapiens, UniProt P24158) | chromogenic substrate hydrolysis, inhibitor | – | 1 µM | – | protease inhibition | < 20%
kaiA (Synechococcus elongatus, UniProt Q79PF6) | KaiC dephosphorylated 1-519 (Synechococcus elongatus, UniProt Q79PF4) | SDS-PAGE | – | added: KaiA | higher = faster | rate constant of priming phosphorylation | 0.35 h⁻¹
ACE2/ALB albumin fusion (Homo sapiens) | FCGRT (Homo sapiens, UniProt P55899) | serum sandwich ELISA | hFcRn+/+ hAlb+/+ transgenic mice | 4 mg/kg, in vivo, intravenous | – | elimination half-life | 13.5 h
C3b/Bb C3bBb complex (Homo sapiens) | scn fragment (Staphylococcus aureus) | native gel | – | 4 °C, added: SCIN 1 µM | – | half-life | > 20 h
rpoS (Escherichia coli, UniProt P13445) | rpoB/rpoC core RNA polymerase (Escherichia coli) | pausing efficiency | – | consensus TEC | – | apparent Kd | 0.32 µM
CD24/Siglec-10 blocking peptide, D-amino acids | Cd274 (Mus musculus, UniProt Q9EP73) | MST | – | – | – | Kd | 22.9 µM
B6 (protein mature) | protein, N-terminal pyroglutamate, disulfides (Micrurus tener tener, UniProt G9I929) | ITC | – | pH 7.4, 15 °C, NaCl 150 mM | – | molecule per partner | 1.02 ± 0.05
DMC1 (Homo sapiens, UniProt Q14565) | T1, Psmc3ip/Mnd1 K63A/Y65A/K67A/R64A/Y70A/Y71A (Mus musculus) | pull-down | – | – | – | binding | binds
RmS-3, glycosylated (Rhipicephalus microplus) | CELA1 (Sus scrofa, UniProt P00772) | chromogenic substrate hydrolysis, inhibitor | – | 1 µM | – | protease inhibition | 92.6%
Grm5 mGlu5a, Venus fusion | Grid1 (Mus musculus, UniProt Q61627) | DHPG-induced current | HEK | 100 µM, co-transfected | – | slow inward current | 78 pA
SNDAYNFNLEEGVHL[pT]PFR (SGO1 331-349 (Homo sapiens, UniProt Q5FBB7); pT346; pT = C[C@@H](OP(=O)(O)O)[C@H](N)C(=O)O) | T2, STAG2/RAD21 STAG2 80-1060, RAD21 281-420 (Homo sapiens) | ITC | peptide | pH 7.7, 25 °C, NaCl 150 mM | – | ΔH | -20 kcal/mol
B7 (HNRNPH1 192-280) | HNRNPF 192-415 (Homo sapiens, UniProt P52597) | trapping in hydrogel, hydrogel binding | – | pH 7.5, 4 °C, NaCl 200 mM | – | binding | binds

A few entries again:
Molecule | partner | assay | test system | conditions | how to read | measurement | value
Importin-β/IBB-mEGFP IBB (Saccharomyces cerevisiae) | NSP1 fragment (Saccharomyces cerevisiae) | ellipsometry | – | apparent, two-component fit | – | partition coefficient | 6700
B3 (Fmnl3 555-954) | ACTA1 | AUC | – | – | – | molecule per partner | 1 FH2:actin
